Experimental data from different studies.
Each line is one published result; not all experiments were run side by side. ± marks the error that the study gave.

For CC(C)(Sc1ccncc1-c1ccc(C#N)c2ccccc12)C(=O)OC1OC(C(=O)O)C(O)C(O)C1O (stereo not shown), the AUC(0-inf) was 0.233 µg·h/mL (plasma; oral, 15 mg, normal renal function, fasted).
For CC[C@H](C)[C@H](NC(=O)[C@H](Cc1ccccc1)NC(=O)[C@H](CC(=O)O)NC(=O)[C@H](CCCCN)NC(=O)[C@H](Cc1ccccc1)NC(=O)[C@H](Cc1ccccc1)NC(=O)[C@H](CCCCN)NC(=O)[C@H](CCN)NC(=O)[C@H](CC(C)C)NC(=O)[C@H](CCCNC(=N)N)NC(=O)[C@H](CCSC)NC(=O)[C@H](C)N)C(=O)N[C@@H](CC(C)C)C(=O)N[C@@H](CCC(N)=O)C(=O)N[C@@H](CCCNC(=N)N)C(=O)N[C@@H](CCCCN)C(=O)N[C@@H](CCCCN)C(=O)O, the helicity was 15.4% (circular dichroism; 20% TFE in PBS; 200 µM, pH 7.4, 25 °C).
CCCC(CCC)NC(=O)c1ccc(O)c(O)c1 has a Tmax of 0.31 h (female Sprague-Dawley rat, plasma; oral, 200 mg/kg of parent drug).
The concentration of C[Si]1(C[C@@H](CN)CC(=O)O)CCCC1 is reported as 2.6 µM (male Sprague-Dawley rat, brain; oral, 30 mg/kg, 1 h, single dose).
With CC[N+]1(Cc2ccc3ccc(O)c(C#N)c3n2)CCCC1CNC(=O)c1cc(S(N)(=O)=O)ccc1OC (stereo not shown) the dark stability was 72 h (KMOPS buffer; 100 µM, pH 7.2).
N=C(N)NCCC[C@@H]1NC(=O)[C@H](Cc2c[nH]c3ccccc23)NC(=O)[C@@H](CC2CCCCC2)NC(=O)[C@@H]2CCCN2C(=O)[C@@H](NC(=O)CCc2ccccc2)CCCNC1=O gave an MRT(0-last) of 0.413 h (C57BL/6J mouse, plasma plasma; intraperitoneal, 1 mg/kg single dose).
Under “volume of distribution”, CC(C)[C@H](NC(=O)CNC(=O)[C@H](CCC(N)=O)NC(=O)[C@H](C)N)C(=O)O is recorded as 7 L/kg (LC-MS/MS; human, male, plasma; intravenous, 20 mg/kg three times daily, day 3, first dose, 10 min infusion, geometric mean).
The plasma concentration of CCOc1ccc2cc(-c3nn(CC4CCN(C)CC4)c4ncnc(N)c34)ccc2n1 is reported as 10.2 ± 2.9 µM (LC-MS/MS; crossbred piglets (Landrace x Large White); oral, 10 mg/kg twice daily, 2 h after dose 9, day 7 post-infection).
For Cn1c(=O)n(Cc2ccc(C(=O)O)cc2)c(=O)c2cc(C#CCc3ccccc3)ccc21, the Papp was 710 nm/s (PAMPA).
Under “accumulation ratio AUC(0-24)”, CN1CCC[C@]1(C)/C=C/S(=O)(=O)NC(=O)Nc1c2c(cc3c1CCC3)CCC2 is recorded as 1.4 (human, plasma; oral, 12.5 mg twice daily, 14 days, multiple ascending dose; reference: day 14 over day 1).
CC[C@H](C)[C@H](NC(=O)[C@H](Cc1ccccc1)NC(=O)[C@H](CC(=O)O)NC(=O)[C@@H]1CCNC(=O)NCCCC[C@H](NC(=O)[C@H](CC(C)C)NC(=O)[C@H](CCCNC(=N)N)NC(=O)[C@H](CCSC)NC(=O)[C@H](C)N)C(=O)N[C@@H](CCCCN)C(=O)N[C@@H](Cc2ccccc2)C(=O)N[C@@H](Cc2ccccc2)C(=O)N1)C(=O)N[C@@H](CC(C)C)C(=O)N[C@@H](CCC(N)=O)C(=O)N[C@@H](CCCNC(=N)N)C(=O)N[C@@H](CCCCN)C(=O)N[C@@H](CCCCN)C(=O)O gave a helicity of 24.4% (circular dichroism; 20% TFE in PBS; 200 µM, pH 7.4, 25 °C).
C[C@H]1Nc2nc(=O)c3[nH]ccc3n2Cc2ccc(Cl)cc21: exposure ratio “not detected” (dog, both sexes, plasma; 100 mg/kg; reference: dog over human 5 mg).
Under “ulcer severity index”, Clc1ccc(NCc2cn(-c3ccccc3)nc2-c2ccc(OCc3ccccc3)cc2)cc1 is recorded as 1.07 ± 0.27 (rat, gastric mucosa; oral, 60 mg/kg, 17 h; reference: control score subtracted).
CN(C)CCCn1c2ccc([N+](=O)[O-])cc2c(=O)n1Cc1ccccc1 gave a CC50 of 5 ± 3 µM (resazurin; peritoneal macrophages, BALB/c mice; 48 h, 10% FBS).
The protein level of O=c1nc(NO)ccn1[C@@H]1O[C@H](CO)[C@@H](O)[C@H]1O is reported as 0.8 fold (Western blot, refers to: CYP2D6; rat, arthritis model, liver; oral, 80 mg/kg twice daily, 5 days; reference: control group).
[11CH3]c1ccc2nc(C3CCC3)n(-c3ccc4[nH]ncc4c3)c2n1 has an absorbed dose of 2.7 µSv/MBq (extrapolated from mouse; standard human, Urinary bladder wall).
The prothrombin time of CCCCCCCCCCCCCCCC(=O)N[C@@H](CCCCN)C(=O)N[C@@H](CCCCN)C(=O)N[C@@H](CO)C(=O)N[C@@H](CCCNC(=N)N)C(=O)N[C@@H](C)C(=O)N[C@@H](CC(C)C)C(=O)N[C@@H](Cc1ccccc1)C(N)=O is reported as 12.2 ± 0.3 s (cynomolgus monkey, male; 10 mg/kg, day 5).
O=c1c(/C=N/NC(=S)N/N=C/c2ccccc2O)coc2ccccc12: “peak potential separation” 0.172 mV (cyclic voltammetry; anhydrous DMF; Cu2+ complex, glassy carbon electrode).
CN[C@@H]1[C@H](O)[C@H](NC)[C@H]2O[C@]3(O)[C@H](O[C@@H]2[C@H]1O)O[C@H](C)C[C@@]3(O)CNCc1ccc(OC(F)(F)F)cc1 — result for “volume of distribution”: 1.13 L/kg (rat; iv, 10 mg/kg).
The t1/2 of Cc1ccc(OCC(=O)O)cc1 is reported as 2.28 h (Sprague-Dawley rat, female, plasma; oral, 100 mg/kg/day of parent drug, day 1, 90-day repeated dosing).
Under “tumour to tissue ratio”, CC(C)[C@H](NC(=O)[C@@H]1CCCN1C(=O)[C@H](CCCNC(=N)N)NC(=O)[C@H](CS)NC(=O)[C@H](Cc1c[nH]c2ccccc12)NC(=O)[C@H](CCCNC(=N)N)NC(=O)[C@@H](Cc1ccccc1)NC(=O)[C@H](Cc1c[nH]cn1)NC(=O)[C@H](CCC(=O)O)NC(=O)[C@H](CS)NC(=O)[C@H](CS)NC(=O)CNC(=O)[C@@H]1CC(=O)N[C@@H](CCCNC(=N)N)C(=O)NCC(=O)N[C@@H](CC(=O)O)C(=O)N[C@H](Cc2ccc(O)cc2)C(=O)N1)C(N)=O [technetium-99m labelled] is recorded as 4.56 (C57 mouse, female, B16/F1 melanoma; intravenous, 0.037 MBq, 2 h; reference: tumour over liver).
For CC[C@H](C)[C@H](NC(=O)[C@H](Cc1ccccc1)NC(=O)[C@H](CCC(=O)O)NC(=O)[C@H](CCCCN)NC(=O)[C@H](C)NC(=O)[C@H](C)NC(=O)[C@H](CCC(N)=O)NC(=O)CNC(=O)[C@H](CCC(=O)O)NC(=O)[C@H](CC(C)C)NC(=O)[C@H](Cc1ccc(O)cc1)NC(=O)[C@H](CO)NC(=O)[C@H](CO)NC(=O)[C@@H](NC(=O)[C@H](CC(=O)O)NC(=O)[C@H](CO)NC(=O)[C@@H](NC(=O)[C@H](Cc1ccccc1)NC(=O)[C@@H](NC(=O)CNC(=O)[C@H](CCC(=O)O)NC(=O)[C@H](C)NC(=O)[C@@H](N)Cc1c[nH]cn1)[C@@H](C)O)[C@@H](C)O)C(C)C)C(=O)N[C@@H](C)C(=O)N[C@@H](Cc1c[nH]c2ccccc12)C(=O)N[C@@H](CC(C)C)C(=O)N[C@H](C(=O)N[C@@H](CCCCN)C(=O)NCC(=O)N[C@@H](CCCNC(=N)N)C(N)=O)C(C)C, “metabolic clearance rate” read 0.924 ± 0.444 L/h/kg (human type 2 diabetes, plasma; intravenous infusion, 1.2 pmol/kg/min, 60 to 360 min).
The concentration of [2H]C([2H])([2H])C(c1cc2nnc(-c3cc(F)ccc3F)n2nc1OCc1ncnn1C)(C([2H])([2H])[2H])C([2H])([2H])[2H] is reported as 1.1 µg/mL (Wistar rat, plasma; oral, 30 mg/kg, 2 h).
CC(=O)N[C@H](CCNC(=O)c1cc(NC(=O)c2cc(NC(=O)c3cc(NC(=O)c4nccn4C)cn3C)cn2C)cn1C)C(=O)Nc1cn(C)c(C(=O)Nc2cc(C(=O)Nc3cc(C(=O)Nc4cc(C(=O)NCCCN(C)CCCN[14C](=O)c5cccc([14C](=O)O)c5)n(C)c4)n(C)c3)n(C)c2)n1 has a tissue concentration of 0.23 mg/kg (NSG male mice, A549 and LNCaP double xenograft, A549 tumour; intraperitoneal, 20 nmol per animal, 24 h).
For CSCOC1C(=O)C2(C)C(OCSC)CC3OCC3(OC(C)=O)C2C(OC(=O)c2ccccc2)C2(O)CC(OC(=O)C(O)C(C=C(C)C)NC(=O)OC(C)(C)C)C(C)=C1C2(C)C (stereo not shown), the MRT(0-t) was 2.8 h (male Sprague-Dawley rat, plasma; intravenous, 2 mg/kg).
For Cn1c(=O)oc2ccc(-c3ccc(CC(C#N)NC(=O)C4CNCCCO4)c(F)c3)cc21 (stereo not shown), the lymphadenopathy incidence was 22.2% (human; oral, 20 mg once daily, TEAE, multiple ascending dose).
N#CC1=C(N)n2c(nnc2-c2ccccc2)NC1c1ccc(Br)cc1 (stereo not shown): “ulcer severity score” 0.5 ± 0.01 (rat male, stomach; oral, 10 mg/kg, 4 h; direction not given).
For COCCOCCOCCOCCOCCOCCOCCOCCC(=O)NCCCc1cc2cc3nc(cc4[nH]c(cc5nc(c(OC)c1[nH]2)C(=O)C5(C)C)cc4CCc1ccc(C(=O)O)cc1)CC3(C)C, “integrated Qy/B absorption ratio” read 0.23 (DMF; room temperature).

A few entries again:
Under “ulcer severity index”, Clc1ccc(NCc2cn(-c3ccccc3)nc2-c2ccc(OCc3ccccc3)cc2)cc1 is recorded as 1.07 ± 0.27 (rat, gastric mucosa; oral, 60 mg/kg, 17 h; reference: control score subtracted).
The protein level of O=c1nc(NO)ccn1[C@@H]1O[C@H](CO)[C@@H](O)[C@H]1O is reported as 0.8 fold (Western blot, refers to: CYP2D6; rat, arthritis model, liver; oral, 80 mg/kg twice daily, 5 days; reference: control group).
